Experimental data of several laboratories.
Numbered parts are unrelated; each lists some results of a single study.
Chain of UniProt O15264 (whole entry, looked up): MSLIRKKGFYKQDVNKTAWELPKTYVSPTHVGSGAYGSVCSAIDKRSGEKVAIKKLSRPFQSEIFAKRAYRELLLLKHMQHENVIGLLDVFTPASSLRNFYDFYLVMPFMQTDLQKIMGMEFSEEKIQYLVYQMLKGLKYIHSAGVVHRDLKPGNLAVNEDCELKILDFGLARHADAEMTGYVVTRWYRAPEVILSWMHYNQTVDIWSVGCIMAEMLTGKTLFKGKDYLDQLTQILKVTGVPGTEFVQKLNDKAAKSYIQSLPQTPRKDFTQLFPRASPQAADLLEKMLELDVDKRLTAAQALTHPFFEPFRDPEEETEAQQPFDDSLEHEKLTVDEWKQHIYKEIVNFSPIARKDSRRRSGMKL
Chain of UniProt Q99558 (whole entry, looked up): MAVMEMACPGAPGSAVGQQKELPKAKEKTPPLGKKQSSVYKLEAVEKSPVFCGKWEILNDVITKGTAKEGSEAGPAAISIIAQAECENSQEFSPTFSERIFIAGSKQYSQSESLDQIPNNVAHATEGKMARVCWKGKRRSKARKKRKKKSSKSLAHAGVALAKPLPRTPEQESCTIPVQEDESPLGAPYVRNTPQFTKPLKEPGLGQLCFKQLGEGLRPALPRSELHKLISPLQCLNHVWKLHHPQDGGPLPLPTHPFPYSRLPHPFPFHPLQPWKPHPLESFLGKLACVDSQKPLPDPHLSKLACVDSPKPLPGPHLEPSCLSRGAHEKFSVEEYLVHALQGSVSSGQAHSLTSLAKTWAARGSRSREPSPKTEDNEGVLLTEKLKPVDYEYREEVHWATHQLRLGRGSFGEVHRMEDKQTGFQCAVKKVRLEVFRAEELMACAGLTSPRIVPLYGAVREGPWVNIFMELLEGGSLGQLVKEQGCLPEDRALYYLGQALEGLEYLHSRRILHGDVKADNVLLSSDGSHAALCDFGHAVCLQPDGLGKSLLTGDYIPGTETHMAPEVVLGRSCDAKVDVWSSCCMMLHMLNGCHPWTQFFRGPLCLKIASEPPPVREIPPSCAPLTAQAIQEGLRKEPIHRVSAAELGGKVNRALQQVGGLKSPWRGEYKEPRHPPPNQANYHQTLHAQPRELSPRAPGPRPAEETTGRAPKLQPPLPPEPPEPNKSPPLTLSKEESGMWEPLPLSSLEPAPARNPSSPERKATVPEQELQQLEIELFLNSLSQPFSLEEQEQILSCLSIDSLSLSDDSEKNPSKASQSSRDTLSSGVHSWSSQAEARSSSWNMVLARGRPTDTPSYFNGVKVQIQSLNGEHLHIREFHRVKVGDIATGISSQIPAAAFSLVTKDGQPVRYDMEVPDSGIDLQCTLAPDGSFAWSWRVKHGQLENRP
Chain of UniProt P51957 (whole entry, looked up): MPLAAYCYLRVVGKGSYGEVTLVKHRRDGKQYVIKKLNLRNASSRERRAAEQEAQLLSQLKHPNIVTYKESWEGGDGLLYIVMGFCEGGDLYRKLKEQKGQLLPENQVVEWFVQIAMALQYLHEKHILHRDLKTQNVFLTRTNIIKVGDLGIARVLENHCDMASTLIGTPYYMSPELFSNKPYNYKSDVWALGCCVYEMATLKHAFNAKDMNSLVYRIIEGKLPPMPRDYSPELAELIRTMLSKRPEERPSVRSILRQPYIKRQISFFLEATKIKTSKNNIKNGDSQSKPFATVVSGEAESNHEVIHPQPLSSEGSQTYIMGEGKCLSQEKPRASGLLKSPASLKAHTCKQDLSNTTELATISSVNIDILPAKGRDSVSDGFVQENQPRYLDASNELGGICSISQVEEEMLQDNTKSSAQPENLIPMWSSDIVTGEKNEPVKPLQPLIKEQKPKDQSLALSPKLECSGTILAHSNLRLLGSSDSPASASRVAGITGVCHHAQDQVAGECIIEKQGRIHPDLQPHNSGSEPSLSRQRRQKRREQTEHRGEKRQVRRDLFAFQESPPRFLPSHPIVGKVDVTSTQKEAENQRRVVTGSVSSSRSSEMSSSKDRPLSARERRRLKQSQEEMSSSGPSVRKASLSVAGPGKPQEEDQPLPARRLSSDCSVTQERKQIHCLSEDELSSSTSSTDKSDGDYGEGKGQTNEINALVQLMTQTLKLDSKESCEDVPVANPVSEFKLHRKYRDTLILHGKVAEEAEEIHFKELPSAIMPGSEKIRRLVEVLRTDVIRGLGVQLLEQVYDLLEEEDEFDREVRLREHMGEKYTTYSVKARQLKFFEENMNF
Chain of UniProt P07947 (whole entry, looked up): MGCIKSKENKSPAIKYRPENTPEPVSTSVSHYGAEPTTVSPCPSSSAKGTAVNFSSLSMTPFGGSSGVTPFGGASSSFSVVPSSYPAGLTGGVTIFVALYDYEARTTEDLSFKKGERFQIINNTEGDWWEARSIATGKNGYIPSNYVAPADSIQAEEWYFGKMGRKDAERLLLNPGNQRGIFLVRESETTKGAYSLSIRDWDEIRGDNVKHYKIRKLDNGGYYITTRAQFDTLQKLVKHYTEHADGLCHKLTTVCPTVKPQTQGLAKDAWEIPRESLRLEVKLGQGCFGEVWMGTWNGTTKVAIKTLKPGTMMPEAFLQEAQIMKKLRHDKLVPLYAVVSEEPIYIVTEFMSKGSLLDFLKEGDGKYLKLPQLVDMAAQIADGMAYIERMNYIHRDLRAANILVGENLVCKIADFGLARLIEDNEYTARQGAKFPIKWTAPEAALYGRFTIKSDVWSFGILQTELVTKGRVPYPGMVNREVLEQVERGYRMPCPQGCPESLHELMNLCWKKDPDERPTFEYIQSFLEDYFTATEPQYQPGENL

Set 1
Compound: Cc1nc(N2CC[C@@H](O)C2)ncc1-c1cc(C(F)(F)F)cc2[nH]ncc12
Method: competition with immobilised ligand
Concentration: 1 µM
Quantity: remaining binding
Tyrosine-protein kinase Yes (YES1, Homo sapiens, UniProt P07947); cell-free assay: 90%
Mitogen-activated protein kinase 13 (MAPK13, Homo sapiens, UniProt O15264); binding: 100%
Serine/threonine-protein kinase Nek4 (NEK4, Homo sapiens, UniProt P51957); binding: 81%
Mitogen-activated protein kinase kinase kinase 14 (MAP3K14, Homo sapiens, UniProt Q99558); binding: 68%

Set 2
Target: Proto-oncogene tyrosine-protein kinase Src (SRC, Homo sapiens, UniProt P12931)
Effect on: enzyme activity
Mode: inhibitor
Concentration: 0.5 µM
Baseline: control
Quantity: remaining activity
O=C1c2ccccc2-c2nc3nnnn3nc21: 80.4%
COc1cc2c(N3CCN(C(=O)Nc4ccc(OC(C)C)cc4)CC3)ncnc2cc1OCCCN1CCCCC1: 102%
O=C(c1ccccc1)c1ccc(N2CCOCC2)cc1O: 97.8%
C[C@@H](N)[C@H]1CC[C@H](C(=O)Nc2ccncc2)CC1: 107%
CCCCc1c(-c2ccc(O)cc2)[nH]c2nccnc12: 65.2%
NC(=O)c1ccc(-c2nc(-c3ccc4c(c3)OCCO4)c(-c3ccccn3)[nH]2)cc1: 91.1%
CC(C)(C)c1nc2c3cc[nH]c(=O)c3c3cc(F)ccc3c2[nH]1: 93.4%
c1cc(-c2cnn3cc(-c4ccc(OCCN5CCCCC5)cc4)cnc23)ccn1: 5.82%
CC(C)N(CCC(=O)c1ccc2ccccc2c1)Cc1ccccc1: 93.2%
Nc1nc(Nc2ccc(S(N)(=O)=O)cc2)nn1C(=S)Nc1c(F)cccc1F: 41.6%
O=c1c(-c2ccc(F)cc2)c(-c2ccncc2)[nH]n1-c1ccc(Cl)cc1: 91.6%
CCN(CC)CCCCN1c2ccccc2Oc2ccc(Cl)cc21: 106%
O=C1NC(=O)/C(=C/c2ccc3c(c2)OC(F)(F)O3)S1: 98.4%
NC(=O)c1cccc(-c2cc(Nc3ccc(OC(F)(F)F)cc3)ncn2)c1: 97%
Clc1ccc(Nc2nnc(Cc3ccncc3)c3ccccc23)cc1: 104%
CNc1cc2c(Nc3cccc(Br)c3)ncnc2cn1: 94.6%
O=C(O)/C=C/c1cc(Br)c(Br)c(Br)c1Br: 88.8%
FC(F)(F)c1ccc(/C=C/c2nc(COc3ccc(CCCCn4ccnn4)cc3)co2)cc1: 92.5%
N#C/C(=C(/N)SC1C=CC=CC1)c1cccc(C(O)c2ccncc2)c1 (stereo not drawn): 93.1%

Set 3
Target: Sal-like protein 4, full length isoform A (SALL4, Homo sapiens, UniProt Q9UJQ4, residues 1-1053)
Chain of UniProt Q9UJQ4 (whole entry, looked up): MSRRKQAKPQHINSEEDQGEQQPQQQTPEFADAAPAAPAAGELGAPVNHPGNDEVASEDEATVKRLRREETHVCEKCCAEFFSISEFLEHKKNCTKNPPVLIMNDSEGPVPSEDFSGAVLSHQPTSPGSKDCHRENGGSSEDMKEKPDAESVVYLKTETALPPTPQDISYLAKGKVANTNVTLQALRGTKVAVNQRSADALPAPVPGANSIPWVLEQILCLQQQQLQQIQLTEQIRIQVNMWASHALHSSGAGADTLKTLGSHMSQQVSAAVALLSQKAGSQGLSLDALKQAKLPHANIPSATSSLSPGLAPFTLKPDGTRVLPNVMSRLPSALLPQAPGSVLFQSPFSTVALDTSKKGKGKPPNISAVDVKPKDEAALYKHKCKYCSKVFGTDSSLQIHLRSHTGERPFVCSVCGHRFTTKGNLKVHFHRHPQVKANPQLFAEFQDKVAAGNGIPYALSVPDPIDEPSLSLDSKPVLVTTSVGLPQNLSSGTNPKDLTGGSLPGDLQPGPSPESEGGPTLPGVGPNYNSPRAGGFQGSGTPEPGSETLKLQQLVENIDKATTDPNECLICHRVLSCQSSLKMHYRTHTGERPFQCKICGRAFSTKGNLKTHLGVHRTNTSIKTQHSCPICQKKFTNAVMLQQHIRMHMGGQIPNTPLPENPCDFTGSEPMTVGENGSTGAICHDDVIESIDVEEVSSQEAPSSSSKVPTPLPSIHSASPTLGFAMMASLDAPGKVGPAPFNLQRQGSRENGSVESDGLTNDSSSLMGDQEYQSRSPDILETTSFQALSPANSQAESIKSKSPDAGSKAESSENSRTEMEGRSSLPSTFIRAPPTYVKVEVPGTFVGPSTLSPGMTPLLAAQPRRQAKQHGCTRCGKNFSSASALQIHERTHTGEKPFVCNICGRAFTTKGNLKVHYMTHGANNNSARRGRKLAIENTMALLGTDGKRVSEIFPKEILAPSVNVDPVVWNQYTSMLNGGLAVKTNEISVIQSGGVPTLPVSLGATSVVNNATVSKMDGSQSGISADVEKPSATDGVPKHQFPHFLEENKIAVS
Method: universal PBM
Molecule type: double-stranded DNA, one strand shown
Sample: in vitro
Concentration: 600 nM
Setting: 8-mer, flanks averaged, mean of replicates
Direction: higher = stronger binding
Quantity: E-score
ACATCGCG: -0.27
GTCTCTTA: 0.0531
AGCACCGC: -0.329
ACACTCCA: 0.0361
CATTCGAA: 0.114
AGTGCGCA: -0.134
ATAGGATG: 0.158
TACCTAAA: 0.131

Set 4
Target: PABPC1L2, full length, GST fusion (mouse, UniProt A0ABA7IW68)
Method: RNAcompete
Molecule type: RNA
Sample: in vitro
Concentration: 20 nM
Setting: 7-mer, probes averaged, single round
Baseline: mean of 7-mers
Direction: higher = stronger binding
Quantity: 7-mer Z-score
Residues (chain): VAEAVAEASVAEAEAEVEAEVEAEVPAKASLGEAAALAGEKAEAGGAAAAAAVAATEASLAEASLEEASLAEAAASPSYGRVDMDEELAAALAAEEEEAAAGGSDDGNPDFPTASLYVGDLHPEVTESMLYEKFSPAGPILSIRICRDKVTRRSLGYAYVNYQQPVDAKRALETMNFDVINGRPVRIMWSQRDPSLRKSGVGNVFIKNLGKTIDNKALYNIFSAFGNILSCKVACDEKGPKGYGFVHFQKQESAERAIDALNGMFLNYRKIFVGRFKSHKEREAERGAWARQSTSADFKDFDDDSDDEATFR
UCCAAAA: 3.99
CAAAUUA: 0.519
UGUGGCC: -0.289
CAUACGA: -0.0101
CAGGCAC: 0.2
ACUAGAA: 0.258
UGGUCAU: 0.0279
AAGAAAC: 1.19

Repeated from above (set 3):
ACACTCCA: 0.0361
CATTCGAA: 0.114
AGTGCGCA: -0.134
ATAGGATG: 0.158
TACCTAAA: 0.131
